Published values of several laboratories.
A part holds a random share of what one study measured. Substitutions count along the parent as printed.

Study 1 — technique: DHFR PCA, dose-response; medium: yeast; notes: Hill fit, mean, not affinity; together with: (+)-ABA, dose series; reading: lower = more sensitive
Target: ABI1, truncated, D143A, DHFR fusion (Arabidopsis thaliana, UniProt P49597)
Parent: PYL1, truncated, DHFR fusion (Arabidopsis thaliana, UniProt Q8VZS8); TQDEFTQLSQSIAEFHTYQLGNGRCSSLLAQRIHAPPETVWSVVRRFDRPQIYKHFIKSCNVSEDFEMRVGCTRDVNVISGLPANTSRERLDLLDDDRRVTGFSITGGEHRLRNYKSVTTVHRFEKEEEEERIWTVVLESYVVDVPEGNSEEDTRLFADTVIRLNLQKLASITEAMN
`S171R` gave an ABA EC50 of 1.78 µM.
With `K58E` the ABA EC50 was 9.01 µM.
For `V70H`, the ABA EC50 was 37.6 µM.
With `D95H` the ABA EC50 was 62.9 µM.
With `A13F` the ABA EC50 was 7.93 µM.
`N61R` has an ABA EC50 of 2.64 µM.
The ABA EC50 of `L156N` is reported as 3.36 µM.
For `D65T`, the ABA EC50 was 2.91 µM.

Study 2 — technique: protein-binding microarray; form: double-stranded DNA, one strand shown; medium: in vitro; concentration: 2200 nM top; notes: 60-bp whole probe; together with: salmon DNA 0.4 mg/ml; baseline: random background probes; reading: higher = stronger binding; shared flanks, not repeated: GCCTAGCAC … GTCTTGATTCGCTTGACGCTGCTG
Target: Interferon regulatory factor 7, full length, phosphomimetic (IRF7, Homo sapiens, UniProt Q92985, residues 1-503, S471D/S472D/S475D/S476D/S477D/S483D/S484D/S487D)
Construct (chain): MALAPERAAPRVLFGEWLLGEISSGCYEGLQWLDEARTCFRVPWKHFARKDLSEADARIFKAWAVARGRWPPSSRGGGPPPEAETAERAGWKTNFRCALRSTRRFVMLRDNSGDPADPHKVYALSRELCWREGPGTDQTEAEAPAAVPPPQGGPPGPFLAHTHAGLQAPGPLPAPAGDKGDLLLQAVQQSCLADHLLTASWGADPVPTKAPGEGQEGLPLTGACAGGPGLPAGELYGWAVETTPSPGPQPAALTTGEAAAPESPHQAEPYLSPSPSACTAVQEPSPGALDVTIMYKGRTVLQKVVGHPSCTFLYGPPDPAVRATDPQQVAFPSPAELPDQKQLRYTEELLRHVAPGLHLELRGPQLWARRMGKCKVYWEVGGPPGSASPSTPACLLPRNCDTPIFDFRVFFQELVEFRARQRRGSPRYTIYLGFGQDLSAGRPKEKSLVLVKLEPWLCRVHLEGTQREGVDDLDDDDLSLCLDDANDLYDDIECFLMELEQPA
`GACGGACTGGGACTGGGTACGTGCTAG` — result for “fitted relative affinity”: -0.853 z-score.
Under “fitted relative affinity”, `GACGGACTGGGTTTCAGGACGTGCTAG` is recorded as -0.412 z-score.
`CTGGTCCTCCTGACTGGGGTGGTGCTA`: “fitted relative affinity” -0.427 z-score.
For `TCAAAGTTCTTTTTTTCACTGTGCTAG`, “fitted relative affinity” read 0.679 z-score.
Under “fitted relative affinity”, `GCCACTTTCCATTTCTGTTTGTGCTAG` is recorded as 10.7 z-score.
Under “fitted relative affinity”, `TTAGGTCTCCTTATACTTTAGTGCTAG` is recorded as 0.56 z-score.
Under “fitted relative affinity”, `TCAACTCTGCCTCTAACACTGTGCTAG` is recorded as 1.07 z-score.
`AGTATGTTCACTATTTAAGAGTGCTAG` — result for “fitted relative affinity”: 0.478 z-score.

Study 3 — technique: RNA Bind-n-Seq; form: RNA; medium: in vitro; concentration: not given; baseline: input RNA pool; reading: higher = stronger binding
Target: RING finger protein unkempt homolog, zinc fingers 1-6, GST-SBP tag (UNK, Homo sapiens, UniProt Q9C0B0, residues 30-357)
Sequence of UniProt Q9C0B0 (30-357, looked up): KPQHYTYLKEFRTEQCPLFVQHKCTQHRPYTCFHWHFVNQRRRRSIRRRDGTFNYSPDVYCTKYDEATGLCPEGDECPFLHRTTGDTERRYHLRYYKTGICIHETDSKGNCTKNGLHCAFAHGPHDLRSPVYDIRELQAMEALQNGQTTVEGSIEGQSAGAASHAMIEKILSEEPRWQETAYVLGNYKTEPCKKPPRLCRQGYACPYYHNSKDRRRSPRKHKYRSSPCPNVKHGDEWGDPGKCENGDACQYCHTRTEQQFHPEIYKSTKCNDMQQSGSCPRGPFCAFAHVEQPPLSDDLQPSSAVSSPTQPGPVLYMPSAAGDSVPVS
Notes: RNA with constant flanks, human and mouse sites, ends assumed
The bound/input enrichment of `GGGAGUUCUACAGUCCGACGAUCGAGGAAACAGACUAUACUCCCGUUUGGUGCAUGAGACAGGCAGGCCGCUACUUACCAGAGUUUAGGGAAACCAGGGCUGCCCAGGACUUCUUCAGCACCUGCCGAUCUCCCGAGGCUUGCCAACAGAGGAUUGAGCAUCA` is reported as 0.105 ratio.
`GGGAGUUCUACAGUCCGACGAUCAGAGAAAUGAGAAAGAAUCUUACACAAGAAGAGAUGCAAAGAAUGUCUACUAGAGUCCUUUUGGCGACUCUUUCCAUUCCUAUUACUCCUGAGCGAACUGAUAUUGCUCGACUUUUGGAUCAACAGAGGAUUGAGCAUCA` gave a bound/input enrichment of 0.118 ratio.
`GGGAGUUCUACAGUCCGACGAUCUAUGAAAACACUGAAGAAAAGUCACGAAUCAGAUACAAUGUCCAACAGAAUUGUGCAUAUUAGUGUUCAGUUGUUCAGCAAUGAGGAGCUAGCCAGACAGGUGACAGAAGAGUGUCAGCUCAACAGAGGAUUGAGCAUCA` gave a bound/input enrichment of 0.258 ratio.
The bound/input enrichment of `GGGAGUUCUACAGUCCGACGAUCUCUGCUUGUUCCGGCCACUGCUUGUGUGAGCUUUAUUUUGUGUGUGUGUAUGUGCCUUGGAAUAGAAAACACCCCUUUGCAUUCAAUUUCUCUCAUCCCUAAAAGCUUUUAAAGACAUGCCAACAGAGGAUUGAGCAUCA` is reported as 0.264 ratio.
The bound/input enrichment of `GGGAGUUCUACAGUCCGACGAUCUUUAAUGACUCUCAGCGUCAGGCUACCAAAGAUGCUGGAACUAUUGCUGGUCUCAAUGUACUUAGAAUUAUUAAUGAGCCAACUGCUGCUGCUAUUGCUUACGGCUUAGACAAAAAGGUUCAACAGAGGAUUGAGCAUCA` is reported as 2.8 ratio.
With `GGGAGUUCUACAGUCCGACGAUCUCUCUGUUCAGCCGUUAAUGCUGGGAUCCAUAUUUAGUUUUAUAAGCUUUUCCCUGUUUUUAGUUUCGUUUGGGUUUUUUUGGCUCAUGGAUUUUAUUUUCUGUUUGUCGAUAAGAAAUGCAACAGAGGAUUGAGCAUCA` the bound/input enrichment was 48.4 ratio.
For `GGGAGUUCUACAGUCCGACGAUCAAAAGUAAGAAUGCUUUUGAUUAUUCUGAAGGAACUGACACAGCAGUAGAUCUGACUUCAGGGAGAGUUACUACAGGUGAGGUAAUGGAUUAUUCAAGCAAGACUACAGGUCCAUAUCCACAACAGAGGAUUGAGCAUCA`, the bound/input enrichment was 0.172 ratio.
The bound/input enrichment of `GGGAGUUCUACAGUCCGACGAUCACCACUGGUGGAAUUGAUGAUAUGUGUCUGAAGUAUUUUGUGGAGGCUGGUGCUAUGGCAGUUAGAAGAGUUUUAAAAAGGGACCUUAAACGCAUUGCCAAAGCUUCUGGAGCAACUAUUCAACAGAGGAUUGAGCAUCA` is reported as 0.291 ratio.

Mixed results
Under binding, `YIDISDVKV` is recorded as “inactive” (HLA class I histocompatibility antigen, C alpha chain, allele C*04:01 (Homo sapiens, UniProt P10321); peptide-MHC binding; peptide; concentration not given).

Some of these lines once more (study 1):
With `A13F` the ABA EC50 was 7.93 µM.
`N61R` has an ABA EC50 of 2.64 µM.
The ABA EC50 of `L156N` is reported as 3.36 µM.
